# Assay results collected from several papers.
# A part holds a random share of what one study measured.

# Study 1
# Target: Histone acetyltransferase KAT6A, winged helix 2, GST fusion (KAT6A, Homo sapiens, UniProt Q92794, residues 85-181)
# Method: protein binding microarray
# Form: double-stranded DNA, one strand shown
# Sample: in vitro
# Concentration: not given
# Setting: 8-mer, flanks averaged, mean of 2 arrays, mostly near background
# Relative to: not given
# Reading: higher = stronger binding
# Residues (chain): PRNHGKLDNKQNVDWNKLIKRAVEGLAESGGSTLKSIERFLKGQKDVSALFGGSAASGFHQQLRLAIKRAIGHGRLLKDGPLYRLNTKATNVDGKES
Oligonucleotide,E-score
CGTGGTAA,0.059
AGGTCCAG,0.157
GCGCCGTA,0.128
AGTGTCGA,0.0476
CCTGTAAC,-0.09

# Study 2
# Target: Interferon regulatory factor 5, full length, phosphomimetic (IRF5, Homo sapiens, UniProt Q13568-2, residues 1-514, S451D/S453D/S456D/S462D)
# Method: protein-binding microarray
# Form: double-stranded DNA, one strand shown
# Sample: in vitro
# Concentration: 940 nM top
# Setting: 60-bp whole probe
# With: salmon DNA 0.4 mg/ml
# Relative to: random background probes
# Reading: higher = stronger binding
# Shared flanks, not repeated: GCCTAGCAC … GTGCTAGTCTTGATTCGCTTGACGCTGCTG
Oligonucleotide,fitted relative affinity [z-score]
AACGATATCGGGACTGGAGAC,-0.181
GCATCTCGGAGATCTCGAAGC,0.0977
GACGGTATCGACTATAGGGAC,4.4
TCATATATACTATATGCAACT,0.0458
TTAGATTCCGGGACTGGATTA,-0.312

# Study 3
# Target: Centromere-binding protein 1, full length, N-terminal tag (CBF1, Saccharomyces cerevisiae, UniProt P17106, residues 1-351)
# Sequence of UniProt P17106 (whole entry, looked up): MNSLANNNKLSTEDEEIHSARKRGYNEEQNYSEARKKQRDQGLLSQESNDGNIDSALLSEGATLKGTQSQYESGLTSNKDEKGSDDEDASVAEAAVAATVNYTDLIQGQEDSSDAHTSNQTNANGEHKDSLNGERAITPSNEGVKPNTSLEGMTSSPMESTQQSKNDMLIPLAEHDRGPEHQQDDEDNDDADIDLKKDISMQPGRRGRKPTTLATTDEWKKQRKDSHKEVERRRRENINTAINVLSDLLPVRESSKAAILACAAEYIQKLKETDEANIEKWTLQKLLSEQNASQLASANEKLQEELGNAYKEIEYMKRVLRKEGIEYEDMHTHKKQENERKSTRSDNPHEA
# Method: protein-binding microarray
# Form: double-stranded DNA, one strand shown
# Sample: in vitro
# Concentration: 0.8 µM
# Setting: whole 60-bp probe, no competitor
# Reading: higher = stronger binding
Oligonucleotide,fluorescence intensity [a.u.]
CTAGCAAAAAGATTTCACGTTGTTCGGGAGGTATTCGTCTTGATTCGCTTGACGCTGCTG,582
GAAGGGTTACCTCATCTCACCTGTTTTGGAAATTAGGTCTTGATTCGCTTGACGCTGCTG,560
GAAGTGTAGAATCATCACCATCTTCTGTGATAATAGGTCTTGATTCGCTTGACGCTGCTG,527
CTAAATTTGGATATTTGTGTGACCCTTTTGTTTTTCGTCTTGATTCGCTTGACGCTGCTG,511
GAATTAGTATAAACTCACGTAATTTCAATGAATTAGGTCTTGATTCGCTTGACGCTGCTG,521

# Single results of other studies
Molecule,target,assay,system,setting,scale,quantity,result
"PhoQ, residues 284 288 289 292 302 303 ALAMYF","PhoP, residues 12 14 15 18 19 AQCLL (Escherichia coli, UniProt P23836)","Sort-seq, measured: YFP reporter",E. coli,"PhoQ-PhoP variant library, with: 10 µM Mg2+","relative to: high Mg2+ state, higher = stronger signaling",fold induction,3.14
